# Assay results from different studies.
# Protocols differ between the studies behind these lines. ± gives the spread as reported.
# Organism: Escherichia coli
Structure (SMILES),effect on,technique,strain,concentration,time,inhibition zone [mm]
Cn1c(C23CC4CC(CC(C4)C2)C3)nn(CCN2CCCCC2)c1=S,microbial growth,disc diffusion,IFO3301,200 µg/disc,24 h,14
Cc1cc(=O)oc2cc3c(c(C)c12)C(=O)c1c(O)cccc1C3=O,microbial growth,disc diffusion,MTCC739,100 µg/disc,,8
Cn1c(C23CC4CC(CC(C4)C2)C3)nn(CCN2CCCC2)c1=S,microbial growth,disc diffusion,IFO3301,200 µg/disc,24 h,17
Cc1ccc(NC(=O)C2C(=O)C(c3ccccc3)c3ccc4c(c32)C(=O)c2ccccc2C4=O)cc1 (stereo not shown),microbial growth,disc diffusion,MTCC739,100 µg/mL,24 h,8
COc1cc(OC)c2c(c1)C(=O)c1cc3oc(=O)cc(C)c3c(O)c1C2=O,microbial growth,disc diffusion,MTCC739,100 µg/disc,,10
CCOC(=O)c1cnc(N/N=C/c2c(-c3ccc(Cl)cc3)nc3ncccn23)s1,microbial growth,well diffusion,ATCC25922,100 µg/mL,,13
CCc1ccc(NC(=O)CSc2nc3ccccc3c(=O)n2-c2ccc(S(N)(=O)=O)cc2)cc1,microbial growth,well diffusion,ATCC25922,500 µg/mL,24 h,14
S=c1n(CN2CCN(c3ccccc3)CC2)nc(C23CC4CC(CC(C4)C2)C3)n1-c1ccccc1,microbial growth,disc diffusion,IFO3301,200 µg/disc,24 h,12
O=C1c2ccccc2C(=O)c2c1ccc1c2C(C(=O)Nc2ccccc2)C(=O)C1c1ccccc1 (stereo not shown),microbial growth,disc diffusion,MTCC739,100 µg/mL,24 h,8
Cc1cc(O)c2c(c1)C(=O)c1cc3oc(=O)cc(-c4ccc(Cl)cc4)c3c(O)c1C2=O,microbial growth,disc diffusion,MTCC739,100 µg/disc,,10
CN(C)CCn1nc(C23CC4CC(CC(C4)C2)C3)n(C)c1=S,microbial growth,disc diffusion,IFO3301,200 µg/disc,24 h,10
COc1cc(NC(=O)CSc2nc3ccccc3c(=O)n2-c2ccc(S(N)(=O)=O)cc2)cc(OC)c1OC,microbial growth,well diffusion,ATCC25922,500 µg/mL,24 h,13
C=C1CC(OC(=O)C(C)(O)CCl)C2C(=C)C(=O)OC2C2C1CC(O)C2(O)CCl (stereo not shown),,,,concentration not given,,9 ± 1.3
COc1ccccc1N1CCN(Cn2nc(C34CC5CC(CC(C5)C3)C4)n(-c3ccccc3)c2=S)CC1,microbial growth,disc diffusion,IFO3301,200 µg/disc,24 h,16
CCOC(=O)c1cnc(N/N=C/c2c(-c3ccc(Br)cc3)nc3ncccn23)s1,microbial growth,well diffusion,ATCC25922,100 µg/mL,,14
Cc1cc(O)cc2c1C(=O)c1c(cc3oc(=O)cc(-c4ccc(Cl)cc4)c3c1O)C2=O,microbial growth,disc diffusion,MTCC739,100 µg/disc,,16
CCOC(=O)c1cnc(N/N=C/c2c(-c3ccc(OC)cc3)nc3ncccn23)s1,microbial growth,well diffusion,ATCC25922,100 µg/mL,,15
Cc1cc(O)c2c(c1)C(=O)c1cc3oc(=O)cc(C)c3c(O)c1C2=O,microbial growth,disc diffusion,MTCC739,100 µg/disc,,8
COc1cc(NC(=O)CSc2nc3ccccc3c(=O)n2-c2ccc(S(N)(=O)=O)cc2)cc(OC)c1,microbial growth,well diffusion,ATCC25922,500 µg/mL,24 h,16
COc1c2c(cc3oc(=O)cc(-c4ccc(O)cc4)c13)C(=O)c1cc(C)cc(O)c1C2=O,microbial growth,disc diffusion,MTCC739,100 µg/disc,,12
O=C1c2ccccc2C(=O)c2c1ccc1c2C(C(=O)Nc2ccccc2Cl)C(=O)C1c1ccccc1 (stereo not shown),microbial growth,disc diffusion,MTCC739,100 µg/mL,24 h,10
CCc1ccccc1NC(=O)CSc1nc2ccccc2c(=O)n1-c1ccc(S(N)(=O)=O)cc1,microbial growth,well diffusion,ATCC25922,500 µg/mL,24 h,30
